{"data": "Published values gathered from unrelated publications", "Nuclear receptor subfamily 2 group C member 2 ligand-binding domain": "Nuclear receptor subfamily 2 group C member 2, ligand-binding domain (Homo sapiens, UniProt P49116)", "note": "“And” joins repeats or separate records; there may be more than shown. Numbers after ± are the reported error.", "UniProt P49116, sequence (whole entry, looked up)": "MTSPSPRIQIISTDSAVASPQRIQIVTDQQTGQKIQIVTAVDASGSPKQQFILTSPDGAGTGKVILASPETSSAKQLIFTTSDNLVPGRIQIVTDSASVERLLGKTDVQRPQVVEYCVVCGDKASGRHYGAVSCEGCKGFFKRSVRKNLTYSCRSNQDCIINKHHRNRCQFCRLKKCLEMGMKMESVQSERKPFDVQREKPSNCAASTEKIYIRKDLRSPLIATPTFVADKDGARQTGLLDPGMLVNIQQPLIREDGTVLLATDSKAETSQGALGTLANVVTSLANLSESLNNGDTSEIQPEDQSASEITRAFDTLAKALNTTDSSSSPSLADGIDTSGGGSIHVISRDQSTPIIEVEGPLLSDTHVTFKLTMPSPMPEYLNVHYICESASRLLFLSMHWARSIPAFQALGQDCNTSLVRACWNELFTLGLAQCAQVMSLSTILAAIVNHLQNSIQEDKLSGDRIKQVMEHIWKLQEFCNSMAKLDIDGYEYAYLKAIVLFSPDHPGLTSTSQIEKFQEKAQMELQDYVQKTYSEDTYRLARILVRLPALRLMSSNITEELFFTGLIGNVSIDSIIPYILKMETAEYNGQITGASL"}
{"SMILES": "COc1cc2ncnc(Nc3ccc(Oc4ccccc4)cc3C)c2cc1OC", "target or system": "COLO 205 (BRAF V600E)", "assay": "resazurin", "setting": "0.1 µM, 72 h, with: trametinib 0 nM", "measurement": "viability", "value": "103%"}
{"SMILES": "O=C(c1ccc(F)cc1)c1ccc2[nH]c(CO)nc2c1", "target or system": "sample A patient iPSC-derived NPCs", "assay": "MTS", "setting": "10 µM, 24 h", "scale": "reference: vehicle", "measurement": "viability", "value": "99.39 ± 0.7%"}
{"SMILES": "Cc1ccc(NC(=O)CCCCCC(=O)Nc2ccccc2N)cc1", "target or system": "OCI-Ly1", "setting": "1 µM, 120 h", "measurement": "viability", "value": "141%"}
{"SMILES": "O=C([O-])c1ccccc1O.[Na+]", "target or system": "Nuclear receptor subfamily 2 group C member 2 ligand-binding domain", "assay": "SPR imaging", "measurement": "Kd", "value": "15.7 nM"}
{"SMILES": "O=C(CCCCCCC(=O)Nc1cccnc1)NO", "target or system": "OCI-Ly1", "setting": "1 µM, 120 h", "measurement": "viability", "value": "45.2%"}
{"SMILES": "Cc1cccc(-c2[nH]c(CNc3ccccc3F)nc2-c2ccc3ncnn3c2)n1", "target or system": "MM1.S", "assay": "XTT", "setting": "0.4 µM", "measurement": "viability", "value": "78% and 102% and 98%"}
{"SMILES": "Nc1ccccc1NC(=O)c1ccc(CNC(=O)OCc2cccnc2)cc1", "target or system": "OCI-Ly1", "setting": "0.5 µM, 120 h", "measurement": "viability", "value": "120%"}
{"SMILES": "OCc1nc2ccc(OCc3ccc(C(F)(F)F)cc3)cc2[nH]1", "target or system": "sample A patient iPSC-derived NPCs", "assay": "MTS", "setting": "10 µM, 24 h", "scale": "reference: vehicle", "measurement": "viability", "value": "106.9 ± 0.61%"}
{"SMILES": "Nc1ncnc2c1ncn2[C@@H]1O[C@H](CO)[C@@H](O)[C@H]1O", "target or system": "Nuclear receptor subfamily 2 group C member 2 ligand-binding domain", "assay": "SPR imaging", "measurement": "Kd", "value": "12.4 nM"}
{"SMILES": "COc1cc2ncnc(Nc3ccc(Oc4ccccc4)c(C)c3C)c2cc1OC", "target or system": "COLO 205 (BRAF V600E)", "assay": "resazurin", "setting": "3 µM, 72 h, with: trametinib", "scale": "reference: DMSO", "measurement": "viability", "value": "70.7%"}
{"SMILES": "OCc1nc2cc(C(O)c3ccc(F)cc3)ccc2[nH]1 (centres unmarked)", "target or system": "sample A patient iPSC-derived NPCs", "assay": "MTS", "setting": "10 µM, 24 h", "scale": "reference: vehicle", "measurement": "viability", "value": "102 ± 4.25%"}
{"note": "Repeated from above:"}
{"SMILES": "O=C([O-])c1ccccc1O.[Na+]", "target or system": "Nuclear receptor subfamily 2 group C member 2 ligand-binding domain", "assay": "SPR imaging", "measurement": "Kd", "value": "15.7 nM"}
{"SMILES": "O=C(CCCCCCC(=O)Nc1cccnc1)NO", "target or system": "OCI-Ly1", "setting": "1 µM, 120 h", "measurement": "viability", "value": "45.2%"}
